Measurements gathered from unrelated publications.
Numbered parts are unrelated; each lists some results of a single study. Values joined by “and” are separate records of one study, mostly repeats; a detail may differ.
Chain of UniProt Q8NI60 (whole entry, looked up): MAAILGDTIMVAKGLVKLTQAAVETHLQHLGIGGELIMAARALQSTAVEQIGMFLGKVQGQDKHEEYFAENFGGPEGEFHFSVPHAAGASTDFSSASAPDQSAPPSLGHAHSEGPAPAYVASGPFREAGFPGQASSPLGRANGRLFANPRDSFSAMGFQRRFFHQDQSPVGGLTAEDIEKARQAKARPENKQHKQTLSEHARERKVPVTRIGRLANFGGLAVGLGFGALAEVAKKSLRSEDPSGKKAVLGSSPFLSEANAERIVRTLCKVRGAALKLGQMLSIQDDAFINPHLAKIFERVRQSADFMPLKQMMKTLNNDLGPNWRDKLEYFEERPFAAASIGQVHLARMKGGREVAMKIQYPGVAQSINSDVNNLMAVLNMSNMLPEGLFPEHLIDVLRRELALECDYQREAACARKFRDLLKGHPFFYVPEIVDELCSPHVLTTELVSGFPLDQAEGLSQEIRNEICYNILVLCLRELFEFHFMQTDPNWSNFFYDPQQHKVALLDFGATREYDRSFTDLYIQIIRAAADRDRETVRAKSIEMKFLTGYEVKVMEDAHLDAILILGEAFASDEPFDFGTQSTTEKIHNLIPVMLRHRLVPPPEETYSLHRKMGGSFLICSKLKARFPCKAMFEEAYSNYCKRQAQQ
Chain of UniProt P06213 (whole entry, looked up): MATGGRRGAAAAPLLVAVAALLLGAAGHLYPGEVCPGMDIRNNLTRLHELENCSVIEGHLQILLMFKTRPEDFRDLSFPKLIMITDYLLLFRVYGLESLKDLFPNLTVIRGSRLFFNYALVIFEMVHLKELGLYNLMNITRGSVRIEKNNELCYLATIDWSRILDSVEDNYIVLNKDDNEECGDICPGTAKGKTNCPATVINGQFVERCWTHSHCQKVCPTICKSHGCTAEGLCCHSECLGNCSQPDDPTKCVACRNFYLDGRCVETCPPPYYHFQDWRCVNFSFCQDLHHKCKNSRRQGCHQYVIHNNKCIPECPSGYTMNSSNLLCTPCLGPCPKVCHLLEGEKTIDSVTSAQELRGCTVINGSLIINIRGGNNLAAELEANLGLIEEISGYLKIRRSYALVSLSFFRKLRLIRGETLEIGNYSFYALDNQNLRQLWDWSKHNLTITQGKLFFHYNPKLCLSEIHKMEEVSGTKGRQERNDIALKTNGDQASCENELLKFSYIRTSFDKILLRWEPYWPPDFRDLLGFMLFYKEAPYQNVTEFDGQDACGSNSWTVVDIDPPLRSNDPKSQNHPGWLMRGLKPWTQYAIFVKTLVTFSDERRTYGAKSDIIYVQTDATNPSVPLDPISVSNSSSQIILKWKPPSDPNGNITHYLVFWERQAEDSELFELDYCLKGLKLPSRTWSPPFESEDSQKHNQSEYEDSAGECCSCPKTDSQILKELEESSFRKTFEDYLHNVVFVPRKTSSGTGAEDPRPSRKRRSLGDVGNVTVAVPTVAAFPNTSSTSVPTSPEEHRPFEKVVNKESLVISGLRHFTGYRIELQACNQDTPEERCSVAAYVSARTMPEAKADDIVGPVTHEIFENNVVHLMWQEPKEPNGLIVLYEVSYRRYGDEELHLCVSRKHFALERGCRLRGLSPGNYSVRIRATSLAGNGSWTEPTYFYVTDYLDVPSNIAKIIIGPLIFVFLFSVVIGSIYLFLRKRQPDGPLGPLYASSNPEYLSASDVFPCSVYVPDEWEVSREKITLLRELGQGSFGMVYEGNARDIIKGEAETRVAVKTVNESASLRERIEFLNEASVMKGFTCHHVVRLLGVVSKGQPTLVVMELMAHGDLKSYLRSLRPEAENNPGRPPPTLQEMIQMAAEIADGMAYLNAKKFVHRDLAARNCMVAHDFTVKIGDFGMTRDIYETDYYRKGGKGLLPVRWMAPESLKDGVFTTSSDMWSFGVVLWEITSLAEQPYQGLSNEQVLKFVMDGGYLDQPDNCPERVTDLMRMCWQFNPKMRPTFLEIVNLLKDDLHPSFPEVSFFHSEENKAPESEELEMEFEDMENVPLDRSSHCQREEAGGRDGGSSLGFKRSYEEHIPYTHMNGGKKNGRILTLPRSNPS
Chain of UniProt P10721 (whole entry, looked up): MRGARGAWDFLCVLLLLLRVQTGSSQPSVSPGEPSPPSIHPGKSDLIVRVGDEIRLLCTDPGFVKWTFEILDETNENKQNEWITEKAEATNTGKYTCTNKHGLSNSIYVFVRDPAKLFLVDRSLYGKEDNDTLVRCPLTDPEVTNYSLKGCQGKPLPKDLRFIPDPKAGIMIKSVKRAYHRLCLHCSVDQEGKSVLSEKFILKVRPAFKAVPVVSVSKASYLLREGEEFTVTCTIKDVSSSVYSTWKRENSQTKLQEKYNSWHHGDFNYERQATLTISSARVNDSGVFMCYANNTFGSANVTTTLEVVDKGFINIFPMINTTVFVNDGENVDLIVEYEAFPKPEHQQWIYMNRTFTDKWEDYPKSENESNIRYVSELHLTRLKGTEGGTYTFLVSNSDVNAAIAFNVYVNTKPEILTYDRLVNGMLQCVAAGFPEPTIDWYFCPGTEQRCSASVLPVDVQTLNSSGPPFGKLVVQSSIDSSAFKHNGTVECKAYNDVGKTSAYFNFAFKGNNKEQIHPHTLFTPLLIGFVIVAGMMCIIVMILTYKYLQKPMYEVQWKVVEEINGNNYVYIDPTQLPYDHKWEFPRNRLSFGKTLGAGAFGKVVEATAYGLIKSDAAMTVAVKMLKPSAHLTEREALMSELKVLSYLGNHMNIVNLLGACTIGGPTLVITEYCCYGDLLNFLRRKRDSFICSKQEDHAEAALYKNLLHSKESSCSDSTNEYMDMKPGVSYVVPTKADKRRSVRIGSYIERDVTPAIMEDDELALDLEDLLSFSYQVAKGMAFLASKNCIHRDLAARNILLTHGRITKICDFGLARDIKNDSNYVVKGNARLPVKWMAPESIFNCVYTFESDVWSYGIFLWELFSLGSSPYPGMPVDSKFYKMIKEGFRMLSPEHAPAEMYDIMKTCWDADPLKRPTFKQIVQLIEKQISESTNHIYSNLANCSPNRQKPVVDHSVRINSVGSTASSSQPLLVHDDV
Chain of UniProt P49761 (whole entry, looked up): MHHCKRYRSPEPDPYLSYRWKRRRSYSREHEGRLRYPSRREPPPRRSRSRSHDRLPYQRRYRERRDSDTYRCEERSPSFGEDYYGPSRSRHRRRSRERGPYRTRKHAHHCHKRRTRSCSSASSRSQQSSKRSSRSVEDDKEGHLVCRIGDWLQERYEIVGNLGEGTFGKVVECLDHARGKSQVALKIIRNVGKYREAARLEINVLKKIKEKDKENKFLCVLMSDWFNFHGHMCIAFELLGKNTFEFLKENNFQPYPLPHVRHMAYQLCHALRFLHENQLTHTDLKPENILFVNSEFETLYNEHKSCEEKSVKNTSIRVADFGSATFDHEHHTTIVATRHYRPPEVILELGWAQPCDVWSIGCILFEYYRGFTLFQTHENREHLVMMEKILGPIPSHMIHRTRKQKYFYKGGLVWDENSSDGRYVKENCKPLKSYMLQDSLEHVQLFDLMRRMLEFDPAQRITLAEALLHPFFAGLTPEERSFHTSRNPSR
Chain of UniProt O75914 (whole entry, looked up): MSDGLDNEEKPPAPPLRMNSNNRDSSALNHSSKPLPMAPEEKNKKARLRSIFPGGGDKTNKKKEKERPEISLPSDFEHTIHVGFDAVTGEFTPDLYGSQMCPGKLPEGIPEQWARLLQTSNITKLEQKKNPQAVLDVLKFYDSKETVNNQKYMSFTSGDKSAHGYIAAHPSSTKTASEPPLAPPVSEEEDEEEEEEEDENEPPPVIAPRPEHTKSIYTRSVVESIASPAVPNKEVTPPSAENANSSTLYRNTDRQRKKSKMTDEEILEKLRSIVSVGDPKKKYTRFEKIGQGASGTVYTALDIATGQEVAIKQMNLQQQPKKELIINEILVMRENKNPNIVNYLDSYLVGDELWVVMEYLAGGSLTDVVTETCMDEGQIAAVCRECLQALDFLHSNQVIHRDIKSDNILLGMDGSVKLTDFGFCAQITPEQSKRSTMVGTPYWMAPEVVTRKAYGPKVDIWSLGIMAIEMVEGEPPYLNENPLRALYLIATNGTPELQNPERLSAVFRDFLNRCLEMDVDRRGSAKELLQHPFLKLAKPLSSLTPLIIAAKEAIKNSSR
Chain of UniProt O75385 (whole entry, looked up): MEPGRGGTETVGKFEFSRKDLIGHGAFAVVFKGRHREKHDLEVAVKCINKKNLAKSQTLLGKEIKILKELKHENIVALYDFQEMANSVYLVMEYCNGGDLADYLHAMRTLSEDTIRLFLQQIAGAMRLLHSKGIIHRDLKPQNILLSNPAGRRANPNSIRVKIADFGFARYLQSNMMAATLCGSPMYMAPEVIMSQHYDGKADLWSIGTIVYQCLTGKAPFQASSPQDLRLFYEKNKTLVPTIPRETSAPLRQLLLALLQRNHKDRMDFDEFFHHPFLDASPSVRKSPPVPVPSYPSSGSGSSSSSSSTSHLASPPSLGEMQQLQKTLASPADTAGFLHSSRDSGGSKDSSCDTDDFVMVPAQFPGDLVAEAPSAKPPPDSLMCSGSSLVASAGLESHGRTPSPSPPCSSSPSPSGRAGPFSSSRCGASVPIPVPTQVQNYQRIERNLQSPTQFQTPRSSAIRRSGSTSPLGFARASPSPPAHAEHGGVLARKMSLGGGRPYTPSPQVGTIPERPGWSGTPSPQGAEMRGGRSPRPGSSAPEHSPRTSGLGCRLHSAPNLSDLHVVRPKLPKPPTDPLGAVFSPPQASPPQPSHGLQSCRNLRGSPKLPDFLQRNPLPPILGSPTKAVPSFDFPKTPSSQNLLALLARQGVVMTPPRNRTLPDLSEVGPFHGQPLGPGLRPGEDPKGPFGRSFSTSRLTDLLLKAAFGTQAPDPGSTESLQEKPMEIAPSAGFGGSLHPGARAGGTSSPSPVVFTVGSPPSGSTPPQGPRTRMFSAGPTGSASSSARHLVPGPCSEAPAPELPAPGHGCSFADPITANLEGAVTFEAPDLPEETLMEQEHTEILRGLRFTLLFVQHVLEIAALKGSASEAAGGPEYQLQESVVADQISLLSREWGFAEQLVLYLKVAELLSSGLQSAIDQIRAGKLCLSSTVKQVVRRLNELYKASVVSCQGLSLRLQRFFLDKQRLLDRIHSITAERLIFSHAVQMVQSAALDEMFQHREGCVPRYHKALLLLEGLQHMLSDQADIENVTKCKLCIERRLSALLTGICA

Sample 1
Cell line: mouse MPNST tumor cells
Method: high-content nuclear imaging
Refers to: cell number
Tested at: 10 µM
Time: 12 h
Notes: mean of 2 replicates
Baseline: plate mean
Direction: higher = more cells
Endpoint: nuclei count
CC(=O)NS(=O)(=O)c1ccc(NC(=O)c2ccccc2C(=O)O)cc1: -0.481 z-score
Cc1ccc(S(=O)(=O)Cc2nc(-c3ccc(C(=O)NCc4cccnc4)cc3)oc2C)cc1: -0.892 z-score
O=C1NC(=O)c2cc(Nc3ccccc3)c(Nc3ccccc3)cc21: 1.64 z-score
CNC[C@H](O)c1ccc(O)c(O)c1: 0.169 z-score
CCN(CC)C(=O)Nc1ccc(OCC(O)CNC(C)(C)C)c(C(C)=O)c1 (stereo not drawn): 0.514 z-score
COc1ccc(/C=C/C(=O)Nc2ccccc2C(=O)O)cc1OC: 0.949 z-score and -0.0696 z-score
Nc1cccc(CNC(=O)c2ccc(Oc3ccc(OCc4cccc(F)c4)cc3)nc2)c1: 2.52 z-score
Nc1nc2[nH]cc(CCc3ccc(C(=O)N[C@@H](CCC(=O)O)C(=O)O)cc3)c2c(=O)[nH]1: -2.72 z-score
COc1ccc(C(=O)NCc2cccnc2)cc1C(=O)NCc1cccnc1: 1.91 z-score
O=C1CCCC(=O)C1C(=O)c1ccc(C(F)(F)F)cc1[N+](=O)[O-]: 2.38 z-score

Sample 2
SMILES: CC(C)n1cnc(-c2ccc(F)cc2)c1-c1ncc(C(=O)Nc2ccc(N3CCN(C)CC3)cc2)[nH]1
Method: phase 2a clinical trial
Host: patients with idiopathic pulmonary fibrosis
Endpoint: patients with treatment-emergent adverse events
refers to: protein urine present; 30 mg once daily, Grade 2: 0%
refers to: first degree atrioventricular block; dose not given, Grade 4, all drug arms: 0%
refers to: electrocardiogram QT prolonged; 60 mg once daily, Grade 1: 0%
refers to: lumbar vertebral fracture; 30 mg once daily, Grade 3, maximum intensity: 0%
refers to: electrocardiogram T wave abnormal; 30 mg once daily, Grade 1: 0%
refers to: idiopathic pulmonary fibrosis; 60 mg once daily, Grade 2: 0%
refers to: drug-induced liver injury; 30 mg once daily, Grade 3: 0%
refers to: investigations (SOC); dose not given, Grade 5, all drug arms total: 0%

Sample 3
Compound: CC(=O)Nc1c(C(C)=O)c(=O)n(C)c2nc(-c3ccc(Cl)cc3Cl)c(-c3ccc(Cl)cc3)cc12
Read-out: cell-free assay
Method: competition with immobilised ligand
Tested at: 1 µM
Endpoint: remaining binding
Calcium/calmodulin-dependent protein kinase type 1D (CAMK1D, Homo sapiens, UniProt Q8IU85): 100%
Insulin receptor (INSR, Homo sapiens, UniProt P06213): 100%
Serine/threonine-protein kinase ULK1 (ULK1, Homo sapiens, UniProt O75385): 66%
Phosphatidylinositol 4-phosphate 5-kinase type-1 gamma (PIP5K1C, Homo sapiens, UniProt O60331): 100%
Mast/stem cell growth factor receptor Kit, autoinhibited (KIT, Homo sapiens, UniProt P10721): 100%
Serine/threonine-protein kinase 32B (STK32B, Homo sapiens, UniProt Q9NY57): 100%
Cyclin-dependent kinase-like 2 (CDKL2, Homo sapiens, UniProt Q92772): 100%
Atypical kinase COQ8A, mitochondrial (COQ8A, Homo sapiens, UniProt Q8NI60): 100%
Mitogen-activated protein kinase kinase kinase 12 (MAP3K12, Homo sapiens, UniProt Q12852): 100%
Phosphatidylinositol 5-phosphate 4-kinase type-2 gamma (PIP4K2C, Homo sapiens, UniProt Q8TBX8): 100%

Sample 4
SMILES: O=c1cc(N2CCOCC2)oc2c(-c3ccccc3)cccc12
Read-out: enzyme activity
Action: inhibitor
Tested at: 0.5 µM
Baseline: control
Endpoint: remaining activity
Dual specificity protein kinase CLK3 (CLK3, Homo sapiens, UniProt P49761): 107%
Dual specificity mitogen-activated protein kinase kinase 1 (MAP2K1, Homo sapiens, UniProt Q02750): 88.8%
Dual specificity protein kinase CLK4 (CLK4, Homo sapiens, UniProt Q9HAZ1): 89.1%
Mitogen-activated protein kinase 11 (MAPK11, Homo sapiens, UniProt Q15759): 96.2%
Calcium/calmodulin-dependent protein kinase type 1B (PNCK, Homo sapiens, UniProt Q6P2M8): 98.4%
Misshapen-like kinase 1 (MINK1, Homo sapiens, UniProt Q8N4C8): 94.6%
Serine/threonine-protein kinase MARK2 (MARK2, Homo sapiens, UniProt Q7KZI7): 79.2%
Serine/threonine-protein kinase Nek3 (NEK3, Homo sapiens, UniProt P51956): 102%
Serine/threonine-protein kinase DCLK2 (DCLK2, Homo sapiens, UniProt Q8N568): 97.6%
Hepatocyte growth factor receptor (MET, Homo sapiens, UniProt P08581): 127%
Serine/threonine-protein kinase MRCK beta (CDC42BPB, Homo sapiens, UniProt Q9Y5S2): 88.4%
Serine/threonine-protein kinase PAK 3 (PAK3, Homo sapiens, UniProt O75914): 104%
Ribosomal protein S6 kinase alpha-4 (RPS6KA4, Homo sapiens, UniProt O75676): 111%
Mitogen-activated protein kinase 1 (MAPK1, Homo sapiens, UniProt P28482): 70.3%
